# Experimental data from different studies.
# Numbered parts are unrelated; each lists some results of a single study.

# Study 1 — method: RNAcompete; form: RNA; matrix: in vitro; concentration: 20 nM; notes: 7-mer, probes averaged, single round; relative to: mean of 7-mers; direction: higher = stronger binding
# Target: PABPC1L2, full length, GST fusion (mouse, UniProt A0ABA7IW68)
# Construct (chain): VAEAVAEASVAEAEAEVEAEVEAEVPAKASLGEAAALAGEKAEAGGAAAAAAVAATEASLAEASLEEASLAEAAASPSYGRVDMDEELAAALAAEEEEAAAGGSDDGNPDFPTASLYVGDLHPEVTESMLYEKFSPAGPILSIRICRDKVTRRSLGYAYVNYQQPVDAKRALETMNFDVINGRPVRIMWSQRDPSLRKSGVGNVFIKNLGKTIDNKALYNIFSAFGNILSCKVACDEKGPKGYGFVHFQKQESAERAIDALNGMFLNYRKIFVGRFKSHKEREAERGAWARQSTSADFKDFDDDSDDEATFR
Sequence,7-mer Z-score
CCUCCUC,-0.405
AGGAAGC,0.0134
GUAUGUG,-0.195
GCCGCGA,-0.151
ACGCCAC,-0.153
GUAGGCG,-0.0192
GUCUAUC,-0.335
UGUCGAU,-0.287
AGCUUCC,-0.278
CGCAAUG,-0.0609
AUAGAGC,0.0116
AAACUCA,0.437
GUUCCCA,-0.213
AGUUAUA,-0.0536
GCGACGG,0.144
AGUAGUG,-0.0464
AGUGUCA,0.0841
UCAUCUG,-0.22
GAACCGA,-0.113
UUUUUCG,-0.101

# Study 2 — method: RNA Bind-n-Seq; form: RNA; matrix: in vitro; concentration: 365 nM; relative to: no-protein control; direction: higher = stronger binding
# Target: RNA binding protein fox-1 homolog 2, RRM domain, GST-SBP tag (RBFOX2, Homo sapiens, UniProt O43251-10, residues 100-194)
# Notes: natural RNA segment, single round, ends assumed
# Target sequence (chain): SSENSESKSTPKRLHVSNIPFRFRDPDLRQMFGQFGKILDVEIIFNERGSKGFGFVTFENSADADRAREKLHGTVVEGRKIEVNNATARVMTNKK
Sequence,RBNS enrichment (R)
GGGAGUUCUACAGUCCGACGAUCUCUACAAUUAAAAGAAUGUUUUGAUAAUCCAGGGGCUGGUUAGUGAGCCCGCUGGCCUCACUGGGGUGUCAGGGCUGGGCCCAGGGAUUGCUAUUUUCACGUAGGCCCUUUGGAAUUCUCGGGUGCCAA,7.51
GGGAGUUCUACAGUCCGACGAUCGACUCCAACACCCUGGAGUGGUUCCGUCAGACCAUGAGGAGCCAAGACCAGCAGGUCCCACAGCCGACAGUGCCCAGAGCAUGCAGGGAACCCUCGUGCAGCUGAGCUGGUGGAAUUCUCGGGUGCCAA,1.52
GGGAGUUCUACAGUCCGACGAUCAAGUUCUUUCAGGGAGCUCUGCCAUGAGAGCAAACAGAGCAUAUCUAUCAUAUGCCACUUUGACGAACUAAGUUGGAGUUUUUGUUUCAAGUCAACUUGUGUGAUAAGUUUGGAAUUCUCGGGUGCCAA,0.28
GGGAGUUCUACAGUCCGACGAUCUUAUGGUGUCAGUGAGUAGUUUGUAUUAGAAUAAUUUUCCUAUUUCCUACCUUGCUUUCUAGAAAGGCUUUUGCUCCAUACUUCCCUUAAUCUCAGAAUGGAUGGAAAAGUGGAAUUCUCGGGUGCCAA,0.363
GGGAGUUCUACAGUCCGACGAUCUUGCUGCUAUUGUGUUAACAUUUUUGUUUUGCUUGCCAUGAGGCCCCAUUUCCACCUCCCAGUAAACUGACUUAUAAAUUGCUAUACUUUUCCUGUUUUUUCUGUUGCUGUGGAAUUCUCGGGUGCCAA,0.663
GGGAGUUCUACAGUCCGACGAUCUGGCUUAUUUUAAUGUGAUGAUGUAAUUGAUGGUUUUUUAUUAUUGUGGUAGGCCUUUUAACAUUUUGUUCUUACACAUACAGUUUUAUGCUCUUUUUUACUCAUUGAAAUGGAAUUCUCGGGUGCCAA,0.563
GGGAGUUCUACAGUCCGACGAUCGAGUGAGGCAAGCCCUUCCUAUGAAGAUGAGCAAAAAUAUUAUUCCACUUCACUCUGAGUGCUUUCAGGAUCUGGGGCUUCAAGACUCACUGCUUCAGUCAGCCUUCAUUUGGAAUUCUCGGGUGCCAA,0.38
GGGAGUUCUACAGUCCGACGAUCAGCCCAGACAACACAGGCAUGGCCUGCGUGCCCUCCCAGCAUCUGCUGCGAUGGCCUCAAGGCCUCUCCAGUCCCCUGCUGCACCAUGCCACUCAGAGCCCCUGAGUGAGUGGAAUUCUCGGGUGCCAA,0.265
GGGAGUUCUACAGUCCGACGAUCUGACACUGACUUGUGACAUAGGGACAUACCAGCCCCCUCCAGGGCUUUGGCCACUUGAAGUUCCUGUUAGUGAGGCUCCAAGGAUCUACCAAGGUGCUAUGGCGCAAAGGUGGAAUUCUCGGGUGCCAA,0.225
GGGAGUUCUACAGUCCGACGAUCUGCCGUGCUUUCCUCCAGUUAUCCUUUGCAUUAACUACGUGGGAACUCUUGCAGGCUAUAUAUGUGAAGAAUAGUUGUGAUGUAGAUGGAAAGAAAAUGUAUUAUUGUGUUGGAAUUCUCGGGUGCCAA,1.44
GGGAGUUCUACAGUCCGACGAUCUCAGCCCCCUCAAGAAAGUGUGGAACCUGCAGGGCCUCUAAUGUGCUGGGCCCCAGUCUCCAAGGGCGAGAAUGGACCCUGAUGGACUUGGACAUGGAGCUGUCCUUGGGUGGAAUUCUCGGGUGCCAA,0.961
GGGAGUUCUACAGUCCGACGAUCUGGUCCUGCCUGUAUGCUGGUUCACAUCCAUCUUUUCAUCUGCACACUCUUUUUCUCGGCGAAUGCUUGGAACUGGGUGCUGAGUGCUGGAACUAGCCUUGUGUCUAUGAUGGAAUUCUCGGGUGCCAA,0.342

# Study 3 — method: protein binding microarray; form: double-stranded DNA, one strand shown; matrix: in vitro; concentration: not given; relative to: not given; direction: higher = stronger binding
# Target: Histone acetyltransferase KAT6A, winged helix 1, GST fusion (KAT6A, Homo sapiens, UniProt Q92794, residues 1-85)
# Notes: 8-mer, flanks averaged, mean of 2 arrays, mostly near background
# Residues (chain): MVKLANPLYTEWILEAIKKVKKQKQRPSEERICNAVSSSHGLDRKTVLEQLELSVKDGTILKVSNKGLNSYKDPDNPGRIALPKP
Sequence,E-score
ATCGCGAA,0.16
ATTCAATA,-0.267
ATGTAGAA,-0.0724
GCAGGCTA,-0.028
CTCTTGCA,-0.197
GGGCCGAC,0.249
AGCGCCCC,0.157
AGTCACAT,-0.16
AGGATTGG,-0.2
GCCGCTCA,0.394
AGACGAGG,-0.11
GAAAAAAC,-0.147
GATCGACC,-0.0585
ACGCAAGT,0.0494
ATGGAAAG,-0.18
GGTCGAGA,0.0496
AAGGAGCT,-0.0077
ACGAGGCT,-0.137
GGAAGCCC,0.0899
GTGTTAAC,0.114
AGGATTCA,-0.136
ACGGAAGC,0.195
AGCGCTCA,0.333
GCCCCCTA,-0.159
CGAATCCG,0.259

# Study 4 — method: universal PBM; form: double-stranded DNA, one strand shown; matrix: in vitro; concentration: not given; direction: higher = stronger binding
# Target: Sal-like protein 4, full length isoform B (SALL4, Homo sapiens, UniProt Q9UJQ4-2, residues 1-616)
# Notes: 8-mer, flanks averaged, mean of replicates
Sequence,E-score
AATGGGAC,-0.161
AGGAGCGC,-0.236
AACCAGAA,0.0632
CCTAACTA,0.142
ACTGAAAC,0.154
CCTAGAAA,-0.0169
CACCATAA,0.255
GCCACGCA,-0.286
AGGCGACC,-0.246
GACCGCCC,-0.276
ACTTTACG,0.155
ACGCCCGA,-0.159
AATTGATA,0.311
AATTCTAT,0.185
CAGCTGGA,-0.0817
CGAAACTC,-0.171
TCCTATCA,0.132
CACGTTGG,-0.2
AGTCTATG,-0.00455
TCCGCTAA,-0.0795
GGGGGTAC,-0.166
CACCTTCC,-0.18
CGCCTCCC,-0.348
ATGTTCAG,0.0909
AGTTATGG,0.332

# A few entries again (study 1):
Sequence,7-mer Z-score
AGUGUCA,0.0841
GUAGGCG,-0.0192
AGGAAGC,0.0134
AAACUCA,0.437
GUAUGUG,-0.195
CCUCCUC,-0.405
AUAGAGC,0.0116
GCGACGG,0.144
UCAUCUG,-0.22
CGCAAUG,-0.0609
